Experimental data gathered from unrelated publications.
Lines come from different studies, so protocols differ. Numbers after ± are the reported error.

`Cc1nc(Nc2ccc3c(c2)/C(=C/c2c[nH]c4ccccc24)C(=O)N3)c2ccccc2n1` has an IC50 of 960 nM (H22; cell growth or viability, MTT).
`CC(C)=CC1OC(C)(C)C2C=C3C(=O)C(Cl)=CC(O)C3C3C(O)C4OC4C(=O)C132` (centres unmarked) gave an IC50 of 5900 nM (SKGT4; cell growth or viability, MTS).
With `COc1ccc(CC[C@H]2OC(=O)[C@@H]3CCCCN3C(=O)C(=O)C(C)(C)COC(=O)C=CCCN(C)C(=O)[C@H](Cc3ccccc3)NC(=O)[C@@H](Cc3ccccc3)N(C)C(=O)[C@@H]3CCCN3C(=O)[C@@H](CC(C)C)N(C)C(=O)CCC(=O)Nc3cccc2c3)cc1OC` the IC50 was 955 ± 113 nM (HUVEC; thymidine uptake, inhibitor).
`CSCCCN1C(=O)C2=Nc3ccccc3CN2C1=S`: IC50 “inactive” (CCRF-CEM; cell viability, resazurin; 72 h).
With `Cc1sc2c(c1C)C(c1ccc(Cl)cc1)=N[C@@H](CC(=O)NCCN(C)CCCCNC(=O)CCCCOc1cccc3c1C(=O)N([C@H]1CCC(=O)NC1=O)C3=O)c1nnc(C)n1-2` the IC50 was 700 nM (MDA-MB-453; cell growth or viability, CCK-8; 72 h).
`COC[C@H](C)N1C(=O)C2=Nc3ccccc3CN2C1=S` gave an IC50 of 11200 nM (CCRF-CEM; cell growth or viability, resazurin; 72 h).
The IC50 of `C=CC(=O)N1CCCC(n2c(=O)c3ncccc3n(Cc3ccc(Oc4ccccc4)cc3)c2=O)C1` (centres unmarked) is reported as 2500 nM (HC-1; cell proliferation, MTT; 72 h).
The IC50 of `CC(=O)[O][Pt]([NH2])([NH2])([Cl])([Cl])[O]C(=O)C(C)c1ccc(CC(C)C)cc1` (centres unmarked) is reported as 1980 nM (BCPAP; cell growth or viability, MTT; 72 h).
With `Cn1ncc(-c2ccc3c(=O)[nH]nc(CN)c3c2)c1-c1c(F)c(Cl)cc(OC2CC2)c1C#N` the IC50 was 40 nM (MKN-45; cell viability, inhibitor, CellTiter-Glo; 120 h, baseline-subtracted).
With `N#Cc1c(N)nc2c(c1-c1ccc(CO)o1)CCc1cc(O)ccc1-2` the IC50 was 2800 nM (HuT78; cell growth or viability, ATP luminescence).
With `COC1CC(=O)c2c(O)cccc2C12Oc1cccc3cccc(c13)O2` (centres unmarked) the IC50 was > 25000 nM (MDA-MB-435; cell growth or viability, resazurin; 72 h).
For `O=C(CCCCCONC(=O)c1nc(-c2ccc(Br)cc2)cs1)NO`, the IC50 was 1110 nM (neonatal foreskin fibroblasts; cytotoxicity, sulforhodamine B; 72 h).
For `CCOc1cncc(-c2ccc(NC(=O)C3(c4ccnc(NS(=O)(=O)C5CC5)n4)CCOCC3)nc2)n1`, the IC50 was 117 nM (PL-21; cell proliferation, CellTiter-Glo; 72 h).
With `Cc1cnc2nc1Nc1cccc(c1)COCc1cc(ccc1OCCN1CCOCC1)N2` the IC50 was 6210 nM (HEL 92.1.7 JAK2 V617F; cell growth, CCK-8).
`COc1ccc(CC[C@H]2OC(=O)[C@@H]3CCCCN3C(=O)C(=O)C(C)(C)COC(=O)C=CCCN(C)C(=O)[C@H](CC(C)C)N(C)C(=O)[C@H]3CCCN3C(=O)[C@H](Cc3ccccc3)N(C)C(=O)[C@H](Cc3ccc(O)cc3)NC(=O)CCC(=O)Nc3cccc2c3)cc1OC` has an IC50 of > 20000 nM (HUVEC; thymidine uptake, inhibitor).
For `CC(C)CCC[C@@H](C)[C@H]1CC[C@H]2[C@@H]3CC=C4C[C@@H](OC(=O)NCCCN(C)CCCNC(=O)c5cc6c(=O)c7cc(C(C)C)ccc7oc6nc5N)CC[C@]4(C)[C@H]3CC[C@]12C`, the IC50 was > 100000 nM (ARPE-19; cytotoxicity, CCK-8; 48 h).
`COc1ccc(CC[C@H]2OC(=O)[C@@H]3CCCCN3C(=O)C(=O)C(C)(C)COC(=O)C=CCCN(C)C(=O)[C@H](CC(C)C)N(C)C(=O)[C@H]3CCCN3C(=O)[C@H](Cc3ccc(I)cc3)NC(=O)[C@H](c3ccccc3)NC(=O)CCC(=O)Nc3cccc2c3)cc1OC` has an IC50 of 63 ± 17 nM (HUVEC; thymidine uptake, inhibitor).
`CC(C)c1ccc(N(C)c2ccc3c(c2)OCC[C@H]3CNc2cnccc2C(=O)O)cc1` has an IC50 of 4.61 nM (COLO-320-HSR; cell growth or viability, ATP luminescence; 7 days).
`Nc1nnc(-c2ccccc2O)cc1N1CC2CCC(C1)N2c1ccnc(C#CCCN2CCCCCC2)c1` has an IC50 of > 1000 nM (NCI-H522 SMARCA4/SMARCA2-deficient; cell viability, CellTiter-Glo; 168 h).
`COc1ccc(-c2csc(C(=O)NOCCCCCC(=O)NO)n2)cc1` has an IC50 of 460 nM (neonatal foreskin fibroblasts; cytotoxicity, sulforhodamine B; 72 h).
`N#Cc1c(N)nc2c(c1-c1ccccc1)Cc1cc(O)ccc1-2` has an IC50 of 11500 nM (HuT78; cell growth or viability, ATP luminescence).
With `Cc1ccc2c(Cl)cc(Cl)c([O-])c2n1.Cc1ccc2c(Cl)cc(Cl)c([O-])c2n1.Cc1ccnc(-c2cc(C)ccn2)c1.[Co+2]` the IC50 was 80100 ± 1060 nM (HL-7702 normal hepatocytes; cell viability, MTT; 48 h).
`COc1ccc(CC[C@H]2OC(=O)[C@@H]3CCCCN3C(=O)C(=O)C(C)(C)COC(=O)C=CCCN(C)C(=O)[C@H](CC(C)C)N(C)C(=O)[C@H]3CCCN3C(=O)[C@H](Cc3ccccc3)NC(=O)[C@H](Cc3ccccc3)NC(=O)CCC(=O)Nc3cccc2c3)cc1OC` has an IC50 of 182 ± 31 nM (HUVEC; thymidine uptake, inhibitor).
`CC(C)N1C(=O)C2=Nc3ccccc3CN2C1=S` gave an IC50 of 22000 nM (CCRF-CEM; cell growth or viability, resazurin; 72 h).
With `CNS(=O)(=O)Nc1nccc(Cc2c(C)c3ccc(Oc4ncccc4F)cc3oc2=O)c1F` the IC50 was 225 nM (NCI-H1568; cell viability; 7 days).
For `Cc1ncsc1-c1ccc(C(C)NC(=O)C2CC(O)CN2C(=O)C(NC(=O)CCCCCCCCCCN2CCCC(Nc3ncc(Cl)c(Nc4ccccc4S(=O)(=O)C(C)C)n3)C2)C(C)(C)C)cc1` (centres unmarked), “log2 fold change” read -2.17 (22Rv1; RNA-seq, item: OSGIN1 mRNA; concentration not given; relative to: DMSO).
`COC1CN([C@H]2CC[C@H]([C@@]3(C)Oc4c(Cl)cc(C(=O)NCc5c(SC)cc(C)[nH]c5=O)c(C)c4O3)CC2)C1`: “log2 fold change” 3.45 (RNA-seq, item: KIT; human cancer patients, whole blood; dose not given, 24 h, PRC2 target gene; relative to: pretreatment sample).
`O=[N+]([O-])c1ccc(C=NNC(=S)Nc2ccccc2)o1` gave an IC50 of > 100000 nM (IMR-90; cell growth or viability, resazurin).
The IC50 of `Clc1ccnc2c1ccc1c(Cl)ccnc12.[Co+2].[O-]c1c(Br)cc(Br)c2cccnc12.[O-]c1c(Br)cc(Br)c2cccnc12` is reported as 60200 ± 1550 nM (HL-7702 normal hepatocytes; cell viability, MTT; 48 h).
`O=C(CCc1ccccc1)N1C(=O)C2(NC(c3ccc(F)cc3)C3(C(=O)Nc4ccccc43)N2Cc2ccc(F)cc2)c2ccccc21` (centres unmarked) gave an IC50 of 66000 nM (L02; cell growth or viability, MTT; 48 h).
For `O=C1C2=Nc3ccccc3CN2C(=S)N1c1ccc([N+](=O)[O-])cc1`, the IC50 was 27800 nM (CCRF-CEM; cell growth or viability, resazurin; 72 h).
The IC50 of `O=C1Nc2ccccc2C12NC(c1ccc(F)cc1)C1(C(=O)Nc3ccccc31)N2Cc1ccc(F)cc1` (centres unmarked) is reported as 68800 nM (L02; cell growth or viability, MTT; 48 h).
`CNC(NN=Cc1ccc([N+](=O)[O-])o1)=[S+][Au-][Cl]` has an IC50 of > 100000 nM (IMR-90; cell growth or viability, resazurin).
`COc1ccc(CC[C@H]2OC(=O)[C@@H]3CCCCN3C(=O)C(=O)C(C)(C)COC(=O)C=CCCN(C)C(=O)[C@@H](C)NC(=O)[C@@H](Cc3ccccc3)N(C)C(=O)[C@@H]3CCCN3C(=O)[C@H](CC(C)C)N(C)C(=O)CCC(=O)Nc3cccc2c3)cc1OC` gave an IC50 of 1500 ± 300 nM (HUVEC; thymidine uptake, inhibitor).
`O=C1NCCC12CCN(c1c(Cl)cncc1-c1ccc(N3CCOCC3)cc1)CC2` gave an IC50 of 30 ± 17 nM (7dF3; WNT reporter gene, inhibitor).
`CC[C@H](C)[C@H](NC(=O)[C@H](CCCCN)NC(=O)C[C@H](Cc1ccccc1)NC(=O)[C@H](CC(C)C)NC(=O)CN)C(=O)N[C@H](CC(=O)N[C@@H](CCCCN)C(=O)N[C@@H](CCCCN)C(=O)N[C@H](CC(=O)N[C@@H](CC(C)C)C(=O)N[C@@H](CCCCN)C(=O)N[C@H](CC(=O)N[C@@H](Cc1ccccc1)C(N)=O)CC(C)C)[C@@H](C)CC)[C@@H](C)CC` gave an IC50 of 6.7 µg/mL (HUVEC; cytotoxicity).
For `Cc1ccc2c(Br)cc(Br)c([O-])c2n1.Cc1ccc2c(Br)cc(Br)c([O-])c2n1.[Co+2].c1ccc(-c2ccccn2)nc1`, the IC50 was 85020 ± 450 nM (HL-7702 normal hepatocytes; cell viability, MTT; 48 h).
`CC[C@H](C)[C@H](NC(=O)[C@H](CCCCN)NC(=O)[C@H](Cc1ccccc1)NC(=O)[C@H]1CCC[C@@H]1NC(=O)CN)C(=O)N[C@H](CC(=O)N[C@@H](CCCCN)C(=O)N[C@@H](CCCCN)C(=O)N[C@H]1CCC[C@@H]1C(=O)N[C@@H](C)C(=O)N[C@@H](CCC(=O)O)C(=O)N[C@@H](CO)C(=O)N[C@H](CC(N)=O)Cc1ccccc1)[C@@H](C)CC` gave an IC50 of 102 µg/mL (HUVEC; cytotoxicity).
With `COc1ccc(CC[C@H]2OC(=O)[C@@H]3CCCCN3C(=O)C(=O)C(C)(C)COC(=O)C=CCCN(C)C(=O)[C@H](CC(C)C)N(C)C(=O)[C@H]3CCCN3C(=O)[C@H](CC3CCCCC3)NC(=O)[C@H](c3ccccc3)NC(=O)CCC(=O)Nc3cccc2c3)cc1OC` the IC50 was 199 ± 42 nM (HUVEC; thymidine uptake, inhibitor).
For `CC[C@H](C)[C@H](NC(=O)[C@H](CC(=O)O)NC(=O)[C@H](Cc1ccccc1)NC(=O)[C@H]1CCC[C@@H]1NC(=O)CN)C(=O)N[C@H](CC(=O)N[C@@H](CCCCN)C(=O)N[C@@H](CCCCN)C(=O)N[C@H]1CCC[C@@H]1C(=O)N[C@@H](C)C(=O)N[C@@H](CCC(=O)O)C(=O)N[C@@H](CO)C(=O)N[C@H](CC(N)=O)Cc1ccccc1)[C@@H](C)CC`, the IC50 was 101 µg/mL (HUVEC; cytotoxicity).
For `COc1ccc(CC[C@H]2OC(=O)[C@@H]3CCCCN3C(=O)C(=O)C(C)(C)COC(=O)C=CCCN(C)C(=O)[C@H](CC(C)C)N(C)C(=O)[C@H]3CCCN3C(=O)[C@H](Cc3ccc(O)cc3)NC(=O)[C@H](c3ccccc3)NC(=O)CCC(=O)Nc3cccc2c3)cc1OC`, the IC50 was 10 ± 2 nM (HUVEC; thymidine uptake, inhibitor).
`COc1ccccc1/C=C1\C(=O)N(C)c2ccc(Nc3nc(C)nc4ccccc34)cc21` gave an IC50 of 4970 nM (H22; cell growth or viability, MTT).
For `COc1ccc(CC[C@H]2OC(=O)[C@@H]3CCCCN3C(=O)C(=O)C(C)(C)COC(=O)C=CCCN(C)C(=O)[C@@H](CC(C)C)N(C)C(=O)[C@H]3CCCN3C(=O)[C@H](Cc3ccccc3)N(C)C(=O)[C@H](Cc3ccccc3)NC(=O)CCC(=O)Nc3cccc2c3)cc1OC`, the IC50 was 1300 ± 300 nM (HUVEC; thymidine uptake, inhibitor).
With `C[C@@H](c1cccc2ccccc12)N1C(=O)C2=Nc3ccccc3CN2C1=S` the IC50 was 190 ± 40 nM (CCRF-CEM; resazurin; 72 h).
